Assay results gathered from unrelated publications.
Each line is one published result; not all experiments were run side by side. Values after ≈ are worked out from the molar mass of the structure shown.
Organism: Pseudomonas aeruginosa

Compound	test	system	conditions	scale	measurement	result
NCCCC[C@H](NC(=O)[C@@H]1CSCC(=O)N[C@@H](CCCCN)C(=O)N[C@@H](Cc2ccccc2)C(=O)N[C@@H](CCCCN)C(=O)NCCCC[C@@H]2NC(=O)[C@H](CCCCN)NC(=O)[C@H](Cc3ccccc3)NC(=O)[C@H](CCCCN)NC(=O)CSC[C@H](NC(=O)[C@H](Cc3ccccc3)NC(=O)[C@H](Cc3ccccc3)NC(=O)[C@H](CCCCN)NC2=O)C(=O)N[C@@H](Cc2ccccc2)C(=O)N[C@@H](Cc2ccccc2)C(=O)N[C@@H](Cc2ccccc2)C(=O)N1)C(N)=O		PAO1	24 to 25 h		minimal biofilm inhibitory concentration	32 µg/mL
CC[C@@H](C)[C@@H](NC(=O)[C@@H](C)NC(=O)[C@@H](CCCCN)NC(=O)[C@@H](CC(C)C)NC(=O)[C@@H](C)NC(=O)[C@H](NC(=O)[C@@H](Cc1c[nH]cn1)NC(=O)[C@@H](CC(C)C)NC(=O)[C@H](NC(=O)[C@H](NC(=O)[C@@H](CCCCN)NC(=O)[C@@H](CCCCN)NC(=O)[C@@H](C)NC(=O)[C@@H](CO)NC(=O)[C@@H](CCCCN)NC(=O)[C@@H](Cc1ccccc1)NC(=O)[C@H](NC(=O)[C@@H](CCCCN)NC(=O)[C@@H](CC(C)C)NC(=O)[C@@H](Cc1ccccc1)NC(=O)[C@@H](CO)NC(=O)[C@@H](CCCCN)NC(=O)[C@@H](Cc1c[nH]c2ccccc12)NC(=O)[C@@H](CCCCN)NC(C)=O)[C@H](C)O)[C@H](C)O)C(C)C)[C@H](C)O)C(=O)N[C@H](CO)C(=O)N[C@H](CO)C(N)=O		six isolates		reference: HC50 over geometric mean MIC	therapeutic index	34.4
CC[C@H](C)[C@H](NC(=O)[C@H](Cc1c[nH]cn1)NC(=O)[C@H](CCCCNC(=O)[C@@H](NC(=O)[C@H](CCCCN)NC(=O)CSC[C@H](NC(=O)[C@H](Cc1ccccc1)NC(=O)[C@H](CCCCNC(=O)[C@H](CC(C)C)NC(=O)[C@@H]1CCCN1C(=O)[C@H](CCCCN)NC(=O)C[C@@H]1O[C@@H](C)[C@@H](O)[C@@H](O)[C@@H]1O)NC(=O)[C@H](CC(C)C)NC(=O)[C@@H]1CCCN1C(=O)[C@H](CCCCN)NC(=O)C[C@@H]1O[C@@H](C)[C@@H](O)[C@@H](O)[C@@H]1O)C(N)=O)[C@@H](C)CC)NC(=O)[C@@H](NC(=O)[C@H](CCCCN)NC(=O)CSC[C@H](NC(=O)[C@H](Cc1ccccc1)NC(=O)[C@H](CCCCNC(=O)[C@H](CC(C)C)NC(=O)[C@@H]1CCCN1C(=O)[C@H](CCCCN)NC(=O)C[C@@H]1O[C@@H](C)[C@@H](O)[C@@H](O)[C@@H]1O)NC(=O)[C@H](CC(C)C)NC(=O)[C@@H]1CCCN1C(=O)[C@H](CCCCN)NC(=O)C[C@@H]1O[C@@H](C)[C@@H](O)[C@@H](O)[C@@H]1O)C(N)=O)[C@@H](C)CC)C(N)=O		PAO1	biofilm-forming conditions		MBC	> 45 µM
CC(C)C1=CC2=CCC3C(C)(C(=O)OCCC[N+](C)(C)C)CCCC3(C)C2CC1 (stereo not shown)		ATCC 27853		reference: HC50 over MIC	selectivity index	3
CC(C)[C@H](N)C(=O)N[C@H]1CSSC[C@@H](C(=O)N[C@H](C(N)=O)C(C)C)NC(=O)[C@H](Cc2c[nH]c3ccccc23)NC(=O)[C@H](CCCCN)NC(=O)[C@H](CCCCN)NC(=O)[C@H](Cc2c[nH]c3ccccc23)NC(=O)[C@H](CCCCN)NC(=O)[C@H](CCCNC(=N)N)NC(=O)[C@H](CCCCN)NC(=O)[C@H](Cc2c[nH]c3ccccc23)NC(=O)[C@H](CCCCN)NC(=O)[C@H](CCCCN)NC(=O)[C@H](Cc2c[nH]c3ccccc23)NC(=O)[C@H](CCCNC(=N)N)NC(=O)[C@H](CCCCN)NC1=O		CICC 21625	5 x MIC		time to complete killing	≤ 1 min
COc1ccc(-c2ccn(CC[C@](C)(C(=O)NO)S(C)(=O)=O)c(=O)c2)c(F)c1	microbial growth	PAO1			MIC90	0.5 µg/mL (≈ 1.21 µM)
CC[C@H](C)[C@H](NC(=O)[C@H](CCCCN)NC(=O)[C@H](CCCCN)NC(=O)[C@H](CC(C)C)NC(=O)[C@H](CCCCN)NC(=O)[C@H](CCC(=O)O)NC(=O)[C@H](CCCCN)NC(=O)[C@@H](NC(=O)[C@H](CCCCN)NC(=O)[C@H](CC(N)=O)NC(=O)[C@H](CCCNC(=N)N)NC(=O)[C@H](Cc1ccccc1)NC(=O)[C@H](CCCCN)NC(=O)[C@H](CCCNC(=N)N)NC(=O)[C@H](CC(C)C)NC(=O)[C@H](CCCNC(=N)N)NC(=O)[C@H](CCCCN)NC(=O)[C@H](CCCNC(=N)N)NC(=O)[C@H](CC(C)C)NC(=O)[C@@H](N)CCCNC(=N)N)[C@@H](C)CC)C(=O)NCC(=O)N[C@@H](CCC(N)=O)C(=O)N[C@@H](CCCCN)C(=O)N[C@H](C(=O)N[C@@H](CCC(N)=O)C(=O)NCC(=O)N[C@@H](Cc1ccccc1)C(=O)N[C@H](C(=O)N1CCC[C@H]1C(=O)N[C@@H](CCCCN)C(=O)N[C@@H](CC(C)C)C(=O)N[C@@H](CCC(N)=O)C(=O)N1CCC[C@H]1C(=O)N[C@@H](CO)C(=O)N[C@@H](CCCCN)C(=O)N[C@@H](CCC(N)=O)C(=O)N[C@@H](CO)C(=O)O)C(C)C)[C@@H](C)CC	inhibition zone method	14, LB 0.8% agar with 154 mM NaCl	overnight, 37 °C		lethal concentration	3.75 µM
CC[C@H](C)[C@H](NC(=O)[C@H](CCCNC(=N)N)NC(=O)[C@H](CCCCN)NC(=O)[C@H](CC(C)C)NC(=O)[C@H](CC(C)C)NC(=O)CN)C(=O)N[C@@H](CCCCN)C(=O)N[C@H](C(=O)N[C@@H](CC(C)C)C(=O)N[C@@H](CC(C)C)C(=O)NCCCC[C@H](NC(=O)[C@H](CCCCNC(=O)[C@H](CC(C)C)NC(=O)[C@H](CC(C)C)NC(=O)[C@@H](NC(=O)[C@H](CCCCN)NC(=O)[C@@H](NC(=O)[C@H](CCCNC(=N)N)NC(=O)[C@H](CCCCN)NC(=O)[C@H](CC(C)C)NC(=O)[C@H](CC(C)C)NC(=O)CN)[C@@H](C)CC)[C@@H](C)O)NC(=O)[C@H](CC(C)C)NC(=O)[C@H](CC(C)C)NC(=O)[C@@H](NC(=O)[C@H](CCCCN)NC(=O)[C@@H](NC(=O)[C@H](CCCNC(=N)N)NC(=O)[C@H](CCCCN)NC(=O)[C@H](CC(C)C)NC(=O)[C@H](CC(C)C)NC(=O)CN)[C@@H](C)CC)[C@@H](C)O)C(N)=O)[C@@H](C)O	checkerboard	ATCC 27853	with: rifampicin		FIC index	0.5
CC[C@H](C)[C@H](NC(=O)[C@H](CCCCN)NC(=O)[C@H](CCCCN)NC(=O)[C@H](CC(C)C)NC(=O)[C@H](CCCCN)NC(=O)[C@H](CCC(=O)O)NC(=O)[C@H](CCCCN)NC(=O)[C@@H](NC(=O)[C@H](CCCCN)NC(=O)[C@H](CC(N)=O)NC(=O)[C@H](CCCNC(=N)N)NC(=O)[C@H](Cc1ccccc1)NC(=O)[C@H](CCCCN)NC(=O)[C@H](CCCNC(=N)N)NC(=O)[C@H](CC(C)C)NC(=O)[C@H](CCCNC(=N)N)NC(=O)[C@H](CCCCN)NC(=O)[C@H](CCCNC(=N)N)NC(=O)[C@H](CC(C)C)NC(=O)[C@@H](N)CC(C)C)[C@@H](C)CC)C(=O)NCC(=O)N[C@@H](CCC(N)=O)C(=O)N[C@@H](CCCCN)C(=O)N[C@H](C(=O)N[C@@H](CCC(N)=O)C(=O)NCC(=O)N[C@@H](Cc1ccccc1)C(=O)N[C@H](C(=O)N1CCC[C@H]1C(=O)N[C@@H](CCCCN)C(=O)N[C@@H](CC(C)C)C(=O)N[C@H](C(=O)N1CCC[C@H]1C(=O)N[C@@H](CCCNC(=N)N)C(=O)N[C@H](C(=O)N[C@@H](CCC(=O)O)C(=O)N[C@@H](CO)C(=O)O)[C@@H](C)O)C(C)C)C(C)C)[C@@H](C)CC	inhibition zone method	14, LB 0.8% agar with 154 mM NaCl	overnight, 37 °C		lethal concentration	3.22 µM
CC(CCC(=O)[O-])C1CCC2C3CCC4CC(O)CCC4(C)C3CC(O)C12C.C[N+](C)(C)CC(O)CC(=O)O (stereo not shown)		TISTR357	1 mg per disc, 18 to 24 h, 37 °C		antibacterial activity	inactive

Some of these lines once more:
Compound	test	system	conditions	scale	measurement	result
CC(C)C1=CC2=CCC3C(C)(C(=O)OCCC[N+](C)(C)C)CCCC3(C)C2CC1 (stereo not shown)		ATCC 27853		reference: HC50 over MIC	selectivity index	3
